Measured values from different studies.
Every numbered part comes from another study and shows a few of its results, in no order. Positions count from the first letter of the parent shown.

Sample 1
Target: CCNB1, cyclin fold, Cln2 fusion (human)
Technique: yeast growth competition, sequencing
Medium: yeast
Setting: strong parent motif
Reference: not given
Direction: higher = stronger binding
Endpoint: normalised enrichment score
Starting sequence: viral docking peptide; YKVKRRLVFGADD
Change = K4H; result = 2.63
Change = V3P; result = 0.762
Change = A11V; result = 3.62
Change = K4I; result = 2.97
Change = R5W; result = 0.514
Change = K4F; result = 1.24
Change = G10K; result = 2.7
Change = V3Y; result = 0.885
Change = K2F; result = 2.98
Change = V3K; result = 0.385
Change = R5H; result = 0.827
Change = D12V; result = 2.47
Change = L7R; result = 1.03
Change = F9G; result = 0.44
Change = K2P; result = 4.49
Change = K2Q; result = 4.78
Change = V3S; result = 0.465

Sample 2
Target: UDP-N-acetylglucosamine--peptide N-acetylglucosaminyltransferase 110 kDa subunit (OGT, Homo sapiens, UniProt O15294)
Chain of UniProt O15294 (whole entry, looked up): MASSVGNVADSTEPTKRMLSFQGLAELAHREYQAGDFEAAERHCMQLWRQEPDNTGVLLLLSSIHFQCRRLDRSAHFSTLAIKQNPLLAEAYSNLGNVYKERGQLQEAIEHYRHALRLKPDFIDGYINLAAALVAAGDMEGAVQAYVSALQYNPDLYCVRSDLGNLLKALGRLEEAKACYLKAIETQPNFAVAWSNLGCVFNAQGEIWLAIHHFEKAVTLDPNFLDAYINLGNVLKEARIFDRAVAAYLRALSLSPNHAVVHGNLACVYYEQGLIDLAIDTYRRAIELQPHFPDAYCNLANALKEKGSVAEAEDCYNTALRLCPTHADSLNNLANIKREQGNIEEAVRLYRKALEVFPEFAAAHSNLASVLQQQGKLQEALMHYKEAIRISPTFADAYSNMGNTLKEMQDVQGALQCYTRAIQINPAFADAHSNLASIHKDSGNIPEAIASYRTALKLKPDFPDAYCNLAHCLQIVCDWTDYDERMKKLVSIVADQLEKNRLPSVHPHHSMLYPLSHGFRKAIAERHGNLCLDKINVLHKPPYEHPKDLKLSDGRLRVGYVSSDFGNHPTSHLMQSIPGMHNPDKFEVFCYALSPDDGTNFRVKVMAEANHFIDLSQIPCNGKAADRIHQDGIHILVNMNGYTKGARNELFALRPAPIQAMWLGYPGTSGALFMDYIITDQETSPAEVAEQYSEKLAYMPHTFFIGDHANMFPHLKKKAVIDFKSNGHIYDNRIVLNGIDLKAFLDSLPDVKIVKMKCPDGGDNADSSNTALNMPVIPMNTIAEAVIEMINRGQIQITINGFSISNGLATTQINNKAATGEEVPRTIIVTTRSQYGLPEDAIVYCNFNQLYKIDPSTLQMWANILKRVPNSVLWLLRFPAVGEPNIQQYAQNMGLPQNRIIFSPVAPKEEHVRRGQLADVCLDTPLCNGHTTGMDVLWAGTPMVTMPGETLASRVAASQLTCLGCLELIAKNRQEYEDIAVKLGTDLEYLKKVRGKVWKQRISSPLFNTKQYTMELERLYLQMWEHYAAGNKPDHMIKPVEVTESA
Read-out: binding
Technique: phage display NGS
Form: peptide
Concentration: concentration not given
Setting: panning round 2
Reference: input library
Endpoint: enrichment fold change
Molecule = HMFTNQHHFRPMHQA; result = 10.8
Molecule = QPIDWLHVHRNYHH; result = 6.19
Molecule = TWLDHFPWHTYHPRD; result = 12.4
Molecule = DGQFKPVYMIDYGV; result = 7.82
Molecule = SIGHEQGYTYYHTHH; result = 3.5
Molecule = YPHHDGHSHSYEPFH; result = 4.24
Molecule = STSYVPIYQIDYAHM; result = 8.96
Molecule = IEMHHQHHAHLLNR; result = 7.04
Molecule = GMRQPPYMPLYQIEV; result = 22.1
Molecule = SSNEPHYPPKYQMVI; result = 12.5

Sample 3
Target: tungstate, free oxyanion
Technique: microfluidic competitive inhibition
Medium: in vitro, cell-free expressed
Concentration: not given
Setting: derived from inhibition constants, unchanged parent 2230 nM
Direction: lower = stronger binding
Endpoint: oxyanion analog dissociation constant
Starting sequence: PafA, mature enzyme, eGFP fusion (Elizabethkingia meningoseptica, UniProt Q9KJX5); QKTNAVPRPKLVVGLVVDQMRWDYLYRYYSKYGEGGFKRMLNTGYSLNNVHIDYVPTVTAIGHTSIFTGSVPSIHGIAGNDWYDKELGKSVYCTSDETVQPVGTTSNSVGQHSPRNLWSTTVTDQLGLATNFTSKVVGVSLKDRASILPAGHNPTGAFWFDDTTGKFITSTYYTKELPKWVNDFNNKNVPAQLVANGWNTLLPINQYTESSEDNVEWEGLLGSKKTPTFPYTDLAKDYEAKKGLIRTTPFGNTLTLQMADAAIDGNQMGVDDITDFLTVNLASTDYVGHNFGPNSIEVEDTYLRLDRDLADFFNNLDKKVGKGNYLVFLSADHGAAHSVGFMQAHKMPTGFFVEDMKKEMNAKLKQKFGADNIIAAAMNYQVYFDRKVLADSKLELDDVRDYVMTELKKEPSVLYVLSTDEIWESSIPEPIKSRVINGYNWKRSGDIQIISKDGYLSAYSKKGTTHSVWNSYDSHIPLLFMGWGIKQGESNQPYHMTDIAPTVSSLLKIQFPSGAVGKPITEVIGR
Change = K89G; result = 2840 nM
Change = H495G; result = 1590 nM
Change = G103A; result = 2050 nM
Change = K85V; result = 2070 nM
Change = V523G; result = 2580 nM
Change = V194G; result = 1600 nM
Change = R246V; result = 7070 nM
Change = V523A; result = 2200 nM

Mixed results
Molecule = RAB8A (Homo sapiens, UniProt P61006); partner = RAB8B (Homo sapiens, UniProt Q92930); assay = cross-linking MS; conditions = hits only; endpoint = interaction screen; result = cross-linked
